# Experimental data collected from several papers.
# ± marks the error that the study gave.
# Sigmar1: Sigma non-opioid intracellular receptor 1 (Sigmar1, Rattus norvegicus, UniProt Q9R0C9)
Structure (SMILES),target,assay,system,conditions,Ki [µM]
"COC(=O)C1C(OC(c2ccc(Cl)cc2)c2ccc(Cl)cc2)CC2CCC1N2C (single isomer, unassigned)","Hrh1 (Rattus norvegicus, UniProt P31390)","ligand displacement, radioligand",,,27.1
CC(C)[C@H](NC(=O)c1ccc(CNc2nc3c(c(=O)[nH]2)CCC3)cc1)C(=O)NC1CNC1,"Collagenase 3 (MMP13, Homo sapiens, UniProt P45452)","enzyme activity, inhibitor",,,0.0281
CC(=O)N[C@@H](CCCNC(=N)N)C(=O)N[C@@H](Cc1ccc(O)cc1)C(=O)N[C@@H](CCCNC(=N)NC(=O)NCCCCN)C(=O)N[C@@H](CC(C)C)C(=O)N[C@H](CCCNC(=N)N)C(=O)N[C@@H](Cc1ccc(O)cc1)C(N)=O,"NPY1R (Homo sapiens, UniProt P25929)","ligand displacement, radioligand",,,> 5
Cc1cc(O)cc(C)c1CC(N)C(=O)NC1CCNc2c(F)cc(Cc3ccccc3)cc21 (stereo not shown),"OPRK1 (Homo sapiens, UniProt P41145)","ligand displacement, radioligand",,cell membranes,0.009
O=C(Nc1cccc(-c2nn[nH]n2)c1)c1cc(-c2ccccc2)cc(C(F)(F)F)c1,"Beta-lactamase CTX-M-27 (Escherichia coli, UniProt Q840M4)","enzyme activity, inhibitor, absorbance",,pH 7,10.4
C=Cc1cc(OC)c2c(c1)c(=O)oc1c2cc(OC)c2c(O)ccc([C@@H]3O[C@H](C)[C@H](O)[C@@](C)(O)[C@H]3O)c21,"2,3,4,5-tetrahydropyridine-2,6-dicarboxylate N-acetyltransferase (dapH, Staphylococcus aureus, UniProt A6QGU8)","enzyme activity, inhibitor, Lineweaver-Burk",,with: acetyl-CoA varied,9.13 ± 0.13
CCC(=O)c1ccc2c(c1)sc(=O)n2CCN1CCCCCC1,Sigmar1,"binding, radioligand binding",rat liver membranes,with: [3H](+)-pentazocine 5 nM,0.0045 ± 0.0002
CC(Cc1ccccc1Sc1ccccc1)N(C)C (stereo not shown),"SLC6A2 (Homo sapiens, UniProt P23975)","ligand displacement in cells, radioligand",,,0.215
O=C1OC(=O)C2C3C=CC(C3)C12 (stereo not shown),"Beta-lactamase (ampC, Escherichia coli K-12, UniProt P00811)",,,,1900
O=c1sc2ccccc2n1CCCCN1CCCCCC1,Sigmar1,"binding, radioligand binding",rat liver membranes,with: [3H](+)-pentazocine 5 nM,0.0032 ± 2e-05
